Measurements pooled from the literature.
Lines come from different studies, so protocols differ. ± gives the spread as reported.

| SMILES | assay | system | conditions | tissue uptake |
| --- | --- | --- | --- | --- |
| COC(=O)c1ccc(-c2cn(Cc3cc(Cl)ccc3O[11CH3])nn2)cc1 | PET/CT | C57BL/6 mouse, liver | 2 min | 3.95 %ID/cc |
| CC(C)[C@H](NC(=O)[C@@H]1CCCN1C(=O)[C@H](CCCNC(=N)N)NC(=O)[C@H](CS)NC(=O)[C@H](Cc1c[nH]c2ccccc12)NC(=O)[C@H](CCCNC(=N)N)NC(=O)[C@@H](Cc1ccccc1)NC(=O)[C@H](Cc1c[nH]cn1)NC(=O)[C@H](CCC(=O)O)NC(=O)[C@H](CS)NC(=O)[C@H](CS)NC(=O)COCCOCCNC(=O)[C@@H]1CC(=O)N[C@@H](CCCNC(=N)N)C(=O)NCC(=O)N[C@@H](CC(=O)O)C(=O)N[C@H](Cc2ccc(O)cc2)C(=O)N1)C(N)=O [technetium-99m labelled] | – | nude mouse, M21 melanoma xenograft, spleen | intravenous, 2 h | 0.44 ± 0.27 %ID/g |
| CCCC[C@@H]1NC(=O)[C@@H](NC(=O)[C@H](CCC(=O)O)NC(=O)CNC(=O)CN2CCN(CC(=O)O)CCN(CC(=O)O)CCN(CC(=O)O)CC2)CCCCNC(=O)C[C@@H](C(N)=O)NC(=O)[C@H](C(C)C)NC(=O)[C@@H]2CCCN2C(=O)[C@H](CCCNC(=N)N)NC(=O)CNC(=O)[C@H](Cc2c[nH]c3ccccc23)NC(=O)[C@H](CCCNC(=N)N)NC(=O)[C@@H](Cc2ccccc2)NC(=O)[C@H](Cc2c[nH]cn2)NC(=O)[C@H](CCC(=O)O)NC1=O [gallium-67 labelled] | – | C57 mouse, B16/F1 melanoma-bearing, kidney | 0.037 MBq, 2 h, together with: L-lysine 15 mg co-injected | 8.32 ± 5.18 %ID/g |
| O=C([O-])CN1CCN(CC(=O)[O-])CCN(CC(=O)NCCc2ccc3c(c2)C2C=CCC2C(c2cc4c(cc2Br)OCO4)N3)CCN(CC(=O)[O-])CC1.[111In+3] (stereo not shown) | – | mouse, Hec50 endometrial tumour, lungs | 4 h post injection | 0.48 ± 0.1 %ID/g |
| CCCC[C@H](NC(=O)CNC(=O)CNC(=O)CN1CCN(CC(=O)O)CCN(CC(=O)O)CCN(CC(=O)O)CC1)C(=O)N[C@H]1CC(=O)NCCCC[C@@H](C(N)=O)NC(=O)[C@H](Cc2c[nH]c3ccccc23)NC(=O)[C@H](CCCNC(=N)N)NC(=O)[C@@H](Cc2ccccc2)NC(=O)[C@H](Cc2c[nH]cn2)NC1=O [copper-64 labelled] | – | female C57 mouse, B16/F1 melanoma, heart | intravenous, 0.037 MBq, 2 h | 1.75 ± 0.13 %ID/g |
| CC(C)[C@H](NC(=O)[C@@H]1CCCN1C(=O)[C@H](CCCNC(=N)N)NC(=O)[C@H](CS)NC(=O)[C@H](Cc1c[nH]c2ccccc12)NC(=O)[C@H](CCCNC(=N)N)NC(=O)[C@@H](Cc1ccccc1)NC(=O)[C@H](Cc1c[nH]cn1)NC(=O)[C@H](CCC(=O)O)NC(=O)[C@H](CS)NC(=O)[C@H](CS)NC(=O)CNC(=O)[C@@H]1CC(=O)N[C@@H](CCCNC(=N)N)C(=O)NCC(=O)N[C@@H](CC(=O)O)C(=O)N[C@H](Cc2ccc(O)cc2)C(=O)N1)C(N)=O [technetium-99m labelled] | – | C57 mouse, female, B16/F1 melanoma, blood | intravenous, 0.037 MBq, 24 h | 0.32 ± 0.44 %ID/g |
| CCCC[C@H](NC(=O)CN1CCC(NC(=O)CN2CCN(CC(=O)O)CCN(CC(=O)O)CCN(CC(=O)O)CC2)CC1)C(=O)N[C@H]1CC(=O)NCCCC[C@@H](C(N)=O)NC(=O)[C@H](Cc2c[nH]c3ccccc23)NC(=O)[C@H](CCCNC(=N)N)NC(=O)[C@@H](Cc2ccccc2)NC(=O)[C@H](Cc2c[nH]cn2)NC1=O [gallium-68 labelled] | biodistribution | C57BL/6J mouse male tumour-bearing, adrenal glands | 1 h post injection, unblocked | 0.5 ± 0.2 %ID/g |
| CC(C)[C@H](NC(=O)[C@@H]1CCCN1C(=O)[C@H](CCCNC(=N)N)NC(=O)[C@H](CS)NC(=O)[C@H](Cc1c[nH]c2ccccc12)NC(=O)[C@H](CCCNC(=N)N)NC(=O)[C@@H](Cc1ccccc1)NC(=O)[C@H](Cc1c[nH]cn1)NC(=O)[C@H](CCC(=O)O)NC(=O)[C@H](CS)NC(=O)[C@H](CS)NC(=O)[C@@H]1CC(=O)N[C@@H](CCCNC(=N)N)C(=O)NCC(=O)N[C@@H](CC(=O)O)C(=O)N[C@H](Cc2ccc(O)cc2)C(=O)N1)C(N)=O [technetium-99m labelled] | – | C57 mouse, female, B16/F1 melanoma, muscle | intravenous, 0.037 MBq, 24 h | 0.22 ± 0.15 %ID/g |
| CCCC[C@H](NC(=O)CNC(=O)CNC(=O)CN1CCN(CC(=O)O)CCN(CC(=O)O)CC1)C(=O)N[C@H]1CC(=O)NCCCC[C@@H](C(N)=O)NC(=O)[C@H](Cc2c[nH]c3ccccc23)NC(=O)[C@H](CCCNC(=N)N)NC(=O)[C@@H](Cc2ccccc2)NC(=O)[C@H](Cc2c[nH]cn2)NC1=O [copper-64 labelled] | – | female C57 mouse, B16/F1 melanoma, kidneys | intravenous, 0.037 MBq, 2 h | 4.92 ± 1.43 %ID/g |
| CC(C)C[C@H](NC(=O)C[C@H](O)[C@H](CC(C)C)NC(=O)[C@H](Cc1c[nH]cn1)NC(=O)CNC(=O)[C@@H](NC(=O)[C@H](C)NC(=O)[C@H](Cc1c[nH]c2ccccc12)NC(=O)[C@H](CCC(N)=O)NC(=O)[C@@H](Cc1ccccc1)NC(=O)CCNC(=O)CCNC(=O)CN1CCN(CC(=O)O)CCN(CC(=O)O)CCN(CC(=O)O)CC1)C(C)C)C(N)=O [lutetium-177 labelled] | – | mouse PC-3 xenograft, tumour | intravenous, 200 pmol, 24 h, without PA | 4.2 ± 1 %ID/g |
| O=C(O)CCC(NP(=O)(O)OCCC[C@@H](NC(=O)CC[C@H](NC(=O)CCCCCNC(=O)c1ccc([18F])cc1)C(=O)O)C(=O)O)C(=O)O (stereo partly shown) | – | mouse, CWR22Rv1 xenograft, lung | dose not given, 4 h, blocking agent pre-dosed | 0.05 ± 0.005 %ID/g |
| CC[C@H](C)[C@H](NC(=O)[C@H](C)NC(=O)[C@H](CC(C)C)NC(=O)[C@H](Cc1ccc(O)c(I)c1)NC(C)=O)C(=O)NCCCCCC(=O)N1CCC[C@H]1C(=O)N[C@@H](C)C(=O)N[C@@H](CC(=O)O)C(=O)N[C@@H](CCC(=O)O)C(=O)N[C@H](C(=O)N[C@@H](CC(=O)O)C(=O)NCC(=O)N[C@@H](CCCNC(=N)N)C(=O)N[C@@H](CCCNC(=N)N)C(=O)N[C@@H](CCCNC(=N)N)C(=O)N[C@@H](CCCN)C(=O)N[C@@H](CCCNC(=N)N)C(=O)N[C@@H](CCCNC(=N)N)C(=O)N[C@@H](CCCCN)C(=O)N[C@@H](CCCCN)C(=O)N[C@@H](CCCNC(=N)N)C(=O)N[C@@H](CCCCNC(=O)CN1CCN(CC(=O)O)CCN(CC(=O)O)CCN(CC(=O)O)CC1)C(N)=O)C(C)C [iodine-125 labelled] | – | BALB/c mouse, female, blood | intravenous, 0.185 MBq, 1 h | 3.2 ± 0.9 %ID/g |
| CN(C)c1ccc(-c2nc3ccc(OCCCCCN4CCN5CCN(CC4)CC(=O)[O][Al]([18F])[O]C(=O)C5)cc3s2)cc1 | – | ICR mouse, kidney | intravenous, 10 min | 8.06 ± 2.28 %ID/g |

For quick reference, copied from above:
| SMILES | assay | system | conditions | tissue uptake |
| --- | --- | --- | --- | --- |
| CN(C)c1ccc(-c2nc3ccc(OCCCCCN4CCN5CCN(CC4)CC(=O)[O][Al]([18F])[O]C(=O)C5)cc3s2)cc1 | – | ICR mouse, kidney | intravenous, 10 min | 8.06 ± 2.28 %ID/g |
